Published values collected from several papers.
Every numbered part comes from another study and shows a few of its results, in no order. Positions count from the first letter of the parent shown.

Series 1 — target: CCNA2, cyclin fold, Cln2 fusion (human); technique: yeast growth competition, sequencing; medium: yeast; setting: strong parent motif; relative to: not given; reading: higher = stronger binding
Starting sequence: E2F1 docking peptide (human); PPVKRRLDFETDH; partner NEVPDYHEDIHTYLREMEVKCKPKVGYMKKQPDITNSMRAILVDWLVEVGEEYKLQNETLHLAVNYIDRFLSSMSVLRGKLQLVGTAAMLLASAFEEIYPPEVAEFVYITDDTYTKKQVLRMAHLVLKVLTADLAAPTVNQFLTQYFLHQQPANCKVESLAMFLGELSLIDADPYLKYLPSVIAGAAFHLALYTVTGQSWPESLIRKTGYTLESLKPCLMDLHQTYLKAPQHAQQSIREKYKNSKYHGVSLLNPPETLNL
Change | normalised enrichment score
R6K | 5.79
P2W | 5.83
T11C | 5.81
F9T | 0.413
L7S | -0.087

Series 2 — technique: RNA Bind-n-Seq; molecule type: RNA; medium: in vitro; concentration: 1 µM; setting: whole 134-nt RNA, ends assumed; with: 150 mM KCl; relative to: input library; reading: higher = stronger binding
Target: Ras GTPase-activating protein-binding protein 1, RRM domain (G3BP1, Homo sapiens, UniProt Q13283)
Sequence of UniProt Q13283 (whole entry, looked up): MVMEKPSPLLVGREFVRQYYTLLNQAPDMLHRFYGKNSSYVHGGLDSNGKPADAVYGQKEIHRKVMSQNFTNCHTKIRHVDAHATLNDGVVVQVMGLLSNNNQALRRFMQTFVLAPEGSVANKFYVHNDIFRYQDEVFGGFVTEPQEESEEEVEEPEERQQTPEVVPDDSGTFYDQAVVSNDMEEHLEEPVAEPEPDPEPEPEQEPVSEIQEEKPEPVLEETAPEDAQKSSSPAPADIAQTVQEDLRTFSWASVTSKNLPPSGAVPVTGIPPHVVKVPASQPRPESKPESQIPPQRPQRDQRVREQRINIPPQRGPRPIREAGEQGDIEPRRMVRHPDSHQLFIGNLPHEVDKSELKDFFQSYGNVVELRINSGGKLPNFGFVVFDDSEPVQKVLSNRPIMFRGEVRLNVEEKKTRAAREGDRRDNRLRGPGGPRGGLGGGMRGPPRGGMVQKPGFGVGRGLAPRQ
Constant ends, left off below: GGGAGUUCUACAGUCCGACGAUC … UGGAAUUCUCGGGUGUCAAGG
Oligonucleotide | log2 enrichment
UCCUGUGCUACACAUCGUAUGUACCGAAUCGGGGAAAAAAAGGGGAAAGGGGUUUGGGGAAAGUAUUAUGUUACGCCGUUCGGAUCUGCA | 1.09
ACCAUGCAGGUGGGCAUCUUUGGGAAGUGGGGCAAGGGGGGGAUAGGGAGGGGGGUAACACUUUGGGAACAGGUGGUCCCAGGCCGUUUC | 0.544
GCAGGAAGUAAAAACAAAUGGAAGUGCUUCGGAUAGUGGCAGGGGUGGGGGUUGCUAAGGAAAGGGUGGGAUGGGAGUGGGUAAAGAGUU | 1.63
UAACUUUAGUGGAGGAUCUGAUGGAUAUGGCAGUGGACGUGGAUUUGGGGAUGGCUAUAAUGGGUAUGGAGGAGGACCUGGAGGUGGCAA | -0.7
CAAGUCCUGUGCUACACAUCGUAUGUACCGAAUCGGUUUGGAAAAAAAGGAAAGGAAAGUAUUAUGUUACGCCGUUCGGAUCUGCACUUC | -0.239

Series 3 — technique: protein binding microarray; molecule type: double-stranded DNA, one strand shown; medium: in vitro; concentration: not given; relative to: not given; reading: higher = stronger binding
Target: Histone acetyltransferase KAT6A, winged helix 1, GST fusion (KAT6A, Homo sapiens, UniProt Q92794, residues 1-85)
Setting: 8-mer, flanks averaged, mean of 2 arrays, mostly near background
Residues (chain): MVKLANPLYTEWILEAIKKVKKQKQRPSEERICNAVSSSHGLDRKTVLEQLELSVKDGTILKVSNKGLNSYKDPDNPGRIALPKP
Oligonucleotide | E-score
GAGTCTTA | -0.069
ACTGTAGA | -0.204
ACGGAGGA | 0.056
CCACGGGG | 0.241
GCACTCAA | -0.035

Further values, each from its own experiment
Substance | target | test | test system | conditions | scale | measurement | value
PhoQ, residues 284 288 289 292 302 303 GANMMA | PhoP, residues 12 14 15 18 19 SGWQI (Escherichia coli, UniProt P23836) | Sort-seq, refers to: YFP reporter | E. coli | PhoQ-PhoP variant library, with: 10 µM Mg2+ | relative to: high Mg2+ state, higher = stronger signaling | fold induction | 0.489

Repeated from above (series 3):
Oligonucleotide | E-score
GAGTCTTA | -0.069
GCACTCAA | -0.035
